Assay results collected from several papers.
Every numbered part comes from another study and shows a few of its results, in no order. Substitutions count along the parent as printed.

Block 1 — technique: RNA Bind-n-Seq; molecule type: RNA; sample: in vitro; concentration: not given; notes: RNA with constant flanks, ends assumed; baseline: input RNA pool; direction: higher = stronger binding
Target: RING finger protein unkempt homolog, zinc fingers 1-6, GST-SBP tag (UNK, Homo sapiens, UniProt Q9C0B0, residues 30-357)
Shared flanks, not repeated: GGGAGUUCUACAGUCCGACGAUC … CAACAGAGGAUUGAGCAUCA
Construct (chain): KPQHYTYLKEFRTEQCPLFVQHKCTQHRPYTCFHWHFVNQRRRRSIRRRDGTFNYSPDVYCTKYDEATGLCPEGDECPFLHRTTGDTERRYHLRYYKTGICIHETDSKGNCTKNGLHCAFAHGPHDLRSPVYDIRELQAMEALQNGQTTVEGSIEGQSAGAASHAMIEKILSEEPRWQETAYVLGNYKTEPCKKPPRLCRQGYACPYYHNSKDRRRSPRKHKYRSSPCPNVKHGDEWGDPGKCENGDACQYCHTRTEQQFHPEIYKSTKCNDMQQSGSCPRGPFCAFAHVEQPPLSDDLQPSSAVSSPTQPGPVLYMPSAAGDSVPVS
Strand	bound/input enrichment
AGCGACAGAAAAAGGGAAGGGUGUCUCAUCCCCCUUCCUCCUCUCCUCCCUGUCCUGAGCCUCCGCCAUGGCCGAGGCAGGGGCUGGGCUGAGCGAGACCGUCACUGAGACAACGGUUAC	0.213 ratio
GCAGGUAUUCAGUACACAAUGCAGGCAUUAGUUUCUCAGUUAAAAAACAAGGAGAGACAGCCGCUGAUGUUAGGACACUACCCAAUGCCUCAACCGUGGACAAUAUUCGCUCCAUCUUUG	0.0736 ratio
CCGGAGCAAAUUUUUCAGAACAUAAAACAAGAAUAUAGUCGUUAUCAGAGGUGGAGACAUUCCGAAGUUGUUCUUAAUCAGAGUGAAGCUUGUGCUUCGGAAAGUCAACCUCACUCCUCA	1.17 ratio
ACUCUUGACUCUUUCCAUUCUCGUCCCUUUCCUCUUGAUCUUCAAGGCCAUGAAUCCCAAAACCGCUAUCUAUCUUAGAGGCUAGCACCCAAACUGAGGUGCCAUCCAAACUGACAAGGC	0.414 ratio
CAUGUGACAAAAUUUUUUAACUAUAAGGUUGUACUGCUGGGAAAAUACAAUGCACAGGGCUCCGGUUCAGAUCAUGAAUUAAUGCUGAGAUGUACCAAAGGACGAGAAUACAUCAAAGUC	0.236 ratio
UUUGCAGUUUAUGACGGUCAUGCUGGAUCCCGAGUGGCAAAUUACUGUUCAACACAUCUAUCCGAACACAUCACCACCAAUGAAGACUUCAGGGCAGCUGACAAAUCAGGCUCUGCUCUC	0.184 ratio
GCAACAAGUGAAGAAGAAGCUAAAUUUGGUGCCAGACGCUUAGCCCGUAGUCUGCAGAAACCCGGUUUUCAGGUAAUAUUUACAGAUUUUAAGGUUGUUAACGUUCUGGCAGUGUGUAAC	0.317 ratio
UGAAUAUUAUACUUCUUUAUUCACAGUAUCUGUGUCUCCUGCACCCUUUGGUGUUGCAAUUUCCGAUAUGUGAAAGUAGAUGUUAGCAGGGUUCUCUCCCUAUUUAAAAAAAAUACAUUA	2.71 ratio
UGUCCACAAGUGGCCGACAUGGAACAUGCUGAGCAGUGGCUCCUCUGAAUGUUCACUUUAUCCGUCAUGUAUAUUUUAAAUGCUAACAUUUGAUGAAUGUAAGUUUCCACAUUGUUGCUG	0.102 ratio
AAGCGCAAGAAGAAUGACAUUUAUGGAGAAGACUAACAGCAGUACAUAUUAUGUAAUAAUCCGGACAAACUUAAAAUUUGGCAAAUAAUGUAUAUUGUAUGAAAUCAAUACUGUAAGCCC	0.271 ratio
CAACUGUUGUGAUGAAAAUGGCACCAGGAAGAAGGCUCUAUUUUUCCACUGAAGUUGAAGAUCCGUAAAAUGGUGUCAGAUGGUGACCCUGCUCGCACGCUUUAGUAAUUUUUUAAAGUG	1.46 ratio

Block 2 — technique: DHFR PCA, deep sequencing; sample: yeast; together with: (+)-ABA 17 µM; baseline: wild-type fitted maximum; direction: higher = stronger binding
Target: ABI1, truncated, D143A, DHFR fusion (Arabidopsis thaliana)
Notes: methotrexate growth selection, single substitutions
Starting sequence: PYL1, truncated, DHFR fusion (Arabidopsis thaliana); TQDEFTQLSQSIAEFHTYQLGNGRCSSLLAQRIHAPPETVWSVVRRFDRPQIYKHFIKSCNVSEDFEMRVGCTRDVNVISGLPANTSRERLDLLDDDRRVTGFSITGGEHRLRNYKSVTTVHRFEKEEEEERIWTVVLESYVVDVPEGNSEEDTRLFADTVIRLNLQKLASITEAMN
Change	relative binding score [%]
F47L	-11.8
S171V	82
F56I	-10.3
R163I	16.9
N149D	10.4
E128F	73.4
G71F	0.678
D96M	-3.61
C60E	-16.6
H110P	22.4
V76S	0.0543
T39P	28.8
R24H	58.4
A170M	63.2
T173D	-6.85
R123E	101
M68A	63.2

Block 3 — technique: RNA Bind-n-Seq; molecule type: RNA; sample: in vitro; concentration: 200 nM; notes: whole 134-nt RNA, ends assumed; together with: 150 mM KCl; baseline: input library; direction: higher = stronger binding
Target: Fragile X messenger ribonucleoprotein 1, C-terminal low-complexity region (Fmr1, Mus musculus, UniProt P35922)
Shared flanks, not repeated: GGGAGUUCUACAGUCCGACGAUC … UGGAAUUCUCGGGUGUCAAGG
Strand	log2 enrichment
AAGUCCUGUGCUACACAUCGUAUGUACCGAAUCGGGAAAAGGGGAAAAGGGAAAAGGAAAGUAUUAUGUUACGCCGUUCGGAUCUGCACU	-0.244
UUUCUGCAGCAUUAGAGAAGGCCCAAGAAGAAGCCCGUCAGCAGCAAGAAACAUUAGCCAUUCAAGUAAGCAAUGGAUGAUGAAUUAGAG	-1.27
CUGAAGAGUCUGAGGAUGCCCAAUCACAGAGCCAAGCAGAUGAAGAGGAGGAAGAUGAUGAUUUUGGGGUGGAGUACUUGCUUGCCAGGG	-0.0635
CCUGUGCUACACAUCGUAUGUACCGAAUCAAAGUGUGUGUGUGUAAAGUGUGUGUGUAAAAAAGUAUUAUGUUACGCCGUUCGGAUCUGC	-0.271
UCCUGUGCUACACAUCGUAUGUACCGAAUCAAAUUUUUAAACCCCCCCAAAUUUUUAAAAAAGUAUUAUGUUACGCCGUUCGGAUCUGCA	0.506
GAAAUCCACAGGAAAGUGAUGUCACAAAACUUCACCAACUGCCACACCAAGAUUCGCCAUGUUGAUGCUCAUGCCACGCUAAAUGAUGGU	0.192
UGGCCCUGGUGGCAUGCGGGGAGGAAGAGGUGGCCUCAUGGAUCGUGGUGGUCUCGGUGGAAUGUUCAGAGGUGGCCGUGGUGGAGACAG	0.191
CACAGACAACACGCACCCACACAGACUCAGAGGGAAGGGGUUGGGAUGGGGACAGGGUGCACAGCAGGGCGGGGUAGGACCCCAGCCCCU	1.44
CAAGUCCUGUGCUACACAUCGUAUGUACCGAAUCGGGGAGGGGAGGGGAAAGGGGAAAGUAUUAUGUUACGCCGUUCGGAUCUGCACUUC	1.1
CCUCAAGUCCUGUGCUACACAUCGUAUGUACCGAAUCGGGGAGGGGAGGAGGAAAGUAUUAUGUUACGCCGUUCGGAUCUGCACUUCCAG	0.61
UGGCCCUCAAGCACUGCACAGAGGCCCUUCUUUCUCUUGGCCAGUACUCCAUGGCAGACUUCACAGGGCCUUGUCCAUUGGAAAUAGAAC	-1.26
AAGUCCUGUGCUACACAUCGUAUGUACCGAAUCGGGUUUUGGGUUUUGGGUUUUGGGAAAGUAUUAUGUUACGCCGUUCGGAUCUGCACU	0.765
UCCUGUGCUACACAUCGUAUGUACCGAAUCGGGAAAAAAAGGGAAAGGGAAAAAAAGGGAAAGUAUUAUGUUACGCCGUUCGGAUCUGCA	-0.28
CAAGUCCUGUGCUACACAUCGUAUGUACCGAAUCGGGUUUGGUUUGGGUUUGGGGAAAGUAUUAUGUUACGCCGUUCGGAUCUGCACUUC	0.0294

Block 4 — target: CCNA1, cyclin fold, Cln2 fusion (human); technique: yeast growth competition, sequencing; sample: yeast; notes: weak parent motif; baseline: not given; direction: higher = stronger binding
Starting sequence: PKN2 docking peptide (human); VSAVQKLDFSDTM; partner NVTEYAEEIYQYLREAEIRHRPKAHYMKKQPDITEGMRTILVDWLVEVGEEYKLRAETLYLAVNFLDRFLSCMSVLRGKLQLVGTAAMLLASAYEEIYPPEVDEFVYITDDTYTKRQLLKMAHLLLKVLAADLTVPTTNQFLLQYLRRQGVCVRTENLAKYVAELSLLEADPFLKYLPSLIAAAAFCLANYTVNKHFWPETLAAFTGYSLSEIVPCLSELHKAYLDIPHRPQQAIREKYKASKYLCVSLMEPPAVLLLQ
Change	normalised enrichment score
K6N	0.366
Q5A L7A	0.422
S2M	0.214
D8A	0.3
V1D	-0.208
V4Q	0.18
L7S	-0.0231
D11S	0.236
F9P	0.127
K6I	0.0719
D11T	0.157
D8G	0.173
F9D	0.23
V1Q	0.189
S10Q	-0.142
S2Y	-0.00621
A3E	-0.0565
S2W	0.2
V1K	0.281
T12Q	0.143
M13K	0.211
K6W	0.326
M13C	0.134
D8R	0.308
L7A	0.0484

For quick reference, copied from above (block 3):
Strand	log2 enrichment
AAGUCCUGUGCUACACAUCGUAUGUACCGAAUCGGGAAAAGGGGAAAAGGGAAAAGGAAAGUAUUAUGUUACGCCGUUCGGAUCUGCACU	-0.244
UUUCUGCAGCAUUAGAGAAGGCCCAAGAAGAAGCCCGUCAGCAGCAAGAAACAUUAGCCAUUCAAGUAAGCAAUGGAUGAUGAAUUAGAG	-1.27
CUGAAGAGUCUGAGGAUGCCCAAUCACAGAGCCAAGCAGAUGAAGAGGAGGAAGAUGAUGAUUUUGGGGUGGAGUACUUGCUUGCCAGGG	-0.0635
CCUGUGCUACACAUCGUAUGUACCGAAUCAAAGUGUGUGUGUGUAAAGUGUGUGUGUAAAAAAGUAUUAUGUUACGCCGUUCGGAUCUGC	-0.271
UCCUGUGCUACACAUCGUAUGUACCGAAUCAAAUUUUUAAACCCCCCCAAAUUUUUAAAAAAGUAUUAUGUUACGCCGUUCGGAUCUGCA	0.506
GAAAUCCACAGGAAAGUGAUGUCACAAAACUUCACCAACUGCCACACCAAGAUUCGCCAUGUUGAUGCUCAUGCCACGCUAAAUGAUGGU	0.192
UGGCCCUGGUGGCAUGCGGGGAGGAAGAGGUGGCCUCAUGGAUCGUGGUGGUCUCGGUGGAAUGUUCAGAGGUGGCCGUGGUGGAGACAG	0.191
CACAGACAACACGCACCCACACAGACUCAGAGGGAAGGGGUUGGGAUGGGGACAGGGUGCACAGCAGGGCGGGGUAGGACCCCAGCCCCU	1.44
CAAGUCCUGUGCUACACAUCGUAUGUACCGAAUCGGGGAGGGGAGGGGAAAGGGGAAAGUAUUAUGUUACGCCGUUCGGAUCUGCACUUC	1.1
CCUCAAGUCCUGUGCUACACAUCGUAUGUACCGAAUCGGGGAGGGGAGGAGGAAAGUAUUAUGUUACGCCGUUCGGAUCUGCACUUCCAG	0.61
UGGCCCUCAAGCACUGCACAGAGGCCCUUCUUUCUCUUGGCCAGUACUCCAUGGCAGACUUCACAGGGCCUUGUCCAUUGGAAAUAGAAC	-1.26
